Published values pooled from the literature.
Lines come from different studies, so protocols differ.
Organism: Escherichia coli

CC(=O)N[C@H](Cc1c(F)c(F)c(F)c(F)c1F)C(=O)N[C@@H](CCN)C(=O)N[C@H](C(=O)N[C@@H](CCN)C(=O)N[C@H]1CCNC(=O)[C@H]([C@@H](C)O)NC(=O)[C@H](CCN)NC(=O)[C@H](CCN)NC(=O)[C@H](CC(C)C)NC(=O)[C@@H](Cc2ccccc2)NC(=O)[C@H](CCN)NC1=O)[C@@H](C)O — MIC (broth microdilution; ATCC 25922, colistin-susceptible): < 0.125 mg/L
C[C@H](CS)C(=O)Nc1cccc(-c2nn[nH]n2)c1 — MIC (DH5a pET28-lacUV5-VIM-2; 100 µM, no meropenem): > 64 mg/L
CC[C@H](C)[C@H](NC(=O)[C@H](C)NC(=O)[C@@H](NC(=O)[C@H](CC(=O)O)NC(=O)[C@H](CCCCN)NC(=O)[C@H](CO)NC(=O)[C@@H](NC(=O)[C@H](CC(N)=O)NC(=O)[C@H](C)NC(=O)[C@@H](NC(=O)[C@H](CCC(=O)O)NC(=O)[C@H](CCCCN)NC(=O)[C@@H](NC(=O)[C@@H](NC(=O)[C@H](Cc1c[nH]cn1)NC(=O)[C@H](CCCCN)NC(=O)[C@@H](NC(=O)[C@H](CCCCN)NC(=O)[C@H](CCCCN)NC(=O)[C@@H](NC(=O)[C@H](CC(C)C)NC(=O)[C@H](CCCCN)NC(=O)[C@H](CC(N)=O)NC(=O)[C@H](Cc1ccccc1)NC(=O)[C@H](CCCNC(=N)N)NC(=O)[C@H](CCCCN)NC(=O)[C@H](CCCNC(=N)N)NC(=O)[C@H](Cc1ccccc1)NC(=O)CN)C(C)C)C(C)C)[C@@H](C)O)[C@@H](C)CC)[C@@H](C)O)C(C)C)C(C)C)C(=O)N[C@H](C(=O)N[C@@H](C)C(=O)NCC(=O)N[C@@H](CO)C(=O)NCC(=O)N[C@H](C(=O)N[C@@H](C)C(=O)N[C@H](C(=O)NCC(=O)N[C@@H](C)C(=O)N[C@@H](C)C(=O)N[C@@H](CCSC)C(N)=O)C(C)C)C(C)C)C(C)C — MIC (broth microdilution; RKI 131/03, CAMHB with 10% mouse serum): 0.125 mg/L
CC[C@H](C)[C@@H]1NC(=O)CNC(=O)[C@H](CCCCN)NC(=O)[C@H](Cc2ccc(O)cc2)NC(=O)[C@@H]2CSSC[C@H](NC1=O)C(=O)N[C@@H](Cc1ccc(O)cc1)C(=O)N[C@@H](CCCCN)C(=O)N[C@@H](CCCCN)C(=O)N[C@H](C(=O)N[C@@H](CCCCN)C(N)=O)CSSC[C@H](NC(=O)[C@H](Cc1c[nH]c3ccccc13)NC(=O)[C@@H](N)CCCCN)C(=O)N[C@@H](Cc1ccccc1)C(=O)N[C@@H](CCCCN)C(=O)N[C@@H](C(C)C)C(=O)N2 — MIC (broth dilution; K12 BW25113; 18 h, 37 °C): 1.8 µM
CC[C@H](C)[C@H](NC(=O)[C@H](Cc1c[nH]c2ccccc12)NC(=O)[C@H](CCCNC(=N)N)NC(=O)[C@@H]1CCCN1C(=O)[C@H](CCCNC(=N)N)NC(=O)[C@@H]1CCCN1C(=O)[C@H](CC(C)C)NC(=O)[C@H](Cc1ccc(O)cc1)NC(=O)[C@@H]1CCCN1C(=O)[C@@H]1CCCN1C(=O)[C@H](CCCCN)NC(=O)[C@H](CC(=O)O)NC(=O)[C@@H](N)C(C)C)C(=O)N[C@@H](CCCNC(=N)N)C(=O)N[C@H](CCCNC(=N)N)C(=O)N[C@H](C(=O)N[C@@H](Cc1ccc(O)cc1)C(=O)N[C@@H](CC(N)=O)C(=O)N[C@H](CCCNC(=N)N)C(N)=O)[C@@H](C)CC — MIC (broth microdilution; BW25113; 18 h, 37 °C, 25% MHB2): 32 mg/L
CC[C@H](C)[C@H](N)C(=O)N[C@@H](CCCNC(=N)N)C(=O)N[C@H](C(=O)N[C@@H](Cc1c[nH]c2ccccc12)C(=O)N[C@@H](CCCCN)C(=O)N[C@@H](CCCCN)C(=O)N[C@H](C(=O)N[C@H](C(=O)N[C@@H](CCCNC(=N)N)C(=O)N[C@@H](CCCCN)C(=O)N[C@@H](CCSC)C(=O)N[C@@H](CCCCN)C(=O)N[C@@H](C)C(=O)N[C@H](C(=O)N[C@@H](Cc1ccc(O)cc1)C(=O)N[C@@H](Cc1c[nH]cn1)C(N)=O)[C@@H](C)CC)C(C)C)[C@@H](C)CC)C(C)C — MIC (broth dilution; ATCC 25922, Mueller-Hinton broth; 24 h, 37 °C): 50 µM
N=C(N)NCCC[C@@H]1NC(=O)[C@H](CCCNC(=N)N)NC(=O)[C@H](CCCNC(=N)N)NC(=O)[C@@H](CCCNC(=N)N)NC(=O)[C@H](Cc2ccc3ccccc3c2)NC(=O)[C@H](Cc2ccc3ccccc3c2)NC(=O)[C@H](Cc2ccc3ccccc3c2)NC1=O — MIC (ATCC BAA-2452, NDM-1 CRE): 16 mg/L
CC(C)C[C@@H](NC(=O)[C@H](NC(=O)[C@@H](CCCCN)NC(=O)[C@@H](CCCCN)NC(=O)[C@@H](CC(C)C)NC(=O)[C@@H](Cc1c[nH]c2ccccc12)NC(=O)[C@@H](CCCCN)NC(=O)[C@@H](CC(C)C)NC(=O)[C@@H](CC(C)C)NC(=O)[C@@H](CCCCN)NC(=O)[C@@H](CCCCN)NC(=O)[C@H](N)C(C)C)C(C)C)C(N)=O — MIC (24 h, 37 °C, Mueller-Hinton broth, CaCl2 2.5 mM): 16 µM
CC[C@H](C)[C@H](NC(=O)[C@@H](CCCNC(=N)N)NC(=O)[C@H](CCCNC(=N)N)NC(=O)[C@@H]1CCCN1C(=O)[C@@H]1CCCN1C(=O)[C@H](CCCCNC(=N)N)NC(=O)[C@@H]1CCCN1C(=O)[C@H](CCCNC(=N)N)NC(=O)[C@@H]1CCCN1C(=O)[C@H](CC(C)C)NC(=O)[C@H](Cc1ccc(O)cc1)NC(=O)[C@@H]1CCCN1C(=O)[C@@H]1CCCN1C(=O)[C@H](CCCCN)NC(=O)[C@H](CC(=O)O)NC(=O)[C@@H](N)C(C)C)C(=O)N[C@@H](Cc1ccc(O)cc1)C(=O)N[C@@H](CC(N)=O)C(=O)N[C@H](CCCNC(=N)N)C(N)=O — MIC (broth microdilution; MC4100; 18 h, 37 °C, 25% MHB2): 4 mg/L
CC(C)[C@H](NC(=O)CNC(=O)CNC(=O)[C@H](Cc1ccc(O)cc1)NC(=O)[C@H](CS)NC(=O)[C@@H](NC(=O)[C@H](Cc1c[nH]c2ccccc12)NC(=O)[C@H](Cc1ccccc1)NC(=O)[C@H](CS)NC(=O)[C@H](Cc1c[nH]c2ccccc12)NC(=O)[C@@H](N)CCCNC(=N)N)C(C)C)C(=O)N[C@@H](CS)C(=O)N[C@@H](Cc1ccc(O)cc1)C(=O)N[C@@H](CCCNC(=N)N)C(=O)N[C@@H](CCCNC(=N)N)C(=O)N[C@@H](CS)C(=O)N[C@@H](CCCNC(=N)N)C(=O)O — MIC (broth microdilution; K88, Mueller-Hinton broth; 37 °C): 2.2 mg/L
C=CCO/N=C(\C(=O)N[C@@H]1C(=O)N(OS(=O)(=O)O)C1(C)C)c1nsc(N)n1 — MIC (agar dilution; 08-85, mcr-1): 2 mg/L
CO[C@@H](C(N)=O)[C@H](NC(=O)c1ccc(NC(=O)[C@@H](N)Cc2ccc(O)cc2)cc1)C(=O)Nc1ccc(C(=O)Nc2ccc(C(=O)Nc3ccc(C(=O)O)c(O)c3OC(C)C)c(O)c2OC(C)C)cc1 — MIC (glutathione S-transferase-like clone; 16 h, 37 °C): 1 mg/L
CC[C@H](C)[C@@H]1NC(=O)CNC(=O)[C@H](CCCNC(=N)N)NC(=O)[C@H](Cc2ccc(O)cc2)NC(=O)[C@@H]2CSSC[C@H](NC1=O)C(=O)N[C@@H](Cc1ccc(O)cc1)C(=O)N[C@@H](CCCNC(=N)N)C(=O)N[C@@H](CCCNC(=N)N)C(=O)N[C@H](C(=O)N[C@@H](CCCNC(=N)N)C(N)=O)CSSC[C@H](NC(=O)[C@H](Cc1c[nH]c3ccccc13)NC(=O)[C@@H](N)CCCCN)C(=O)N[C@@H](Cc1ccccc1)C(=O)N[C@@H](CCCNC(=N)N)C(=O)N[C@@H](C(C)C)C(=O)N2 — MIC (bacterial growth, broth dilution, OD600; DH5α, LB medium; 16 h, 37 °C): 3.1 µM
CC[C@H](C)[C@H](NC(=O)[C@@H](CCCNC(=N)N)NC(=O)[C@H](CCCNC(=N)N)NC(=O)[C@@H]1CCCN1C(=O)[C@@H]1CCCN1C(=O)[C@H](CCCNC(=N)N)NC(=O)[C@@H]1CCCN1C(=O)[C@H](CCCNC(=N)N)NC(=O)[C@@H]1CCCN1C(=O)[C@H](CCSC)NC(=O)[C@H](Cc1ccc(O)cc1)NC(=O)[C@@H]1CCCN1C(=O)[C@@H]1CCCN1C(=O)[C@H](CCCCN)NC(=O)[C@H](CC(=O)O)NC(=O)[C@@H](N)C(C)C)C(=O)N[C@@H](Cc1ccc(O)cc1)C(=O)N[C@@H](CC(N)=O)C(=O)N[C@H](CCCNC(=N)N)C(N)=O — MIC (broth microdilution; BW25113; 18 h, 37 °C, 25% MHB2): 16 mg/L
CC(C)C[C@H](NC(=O)[C@H](CCCCN)NC(=O)C1CCC=CCCC(NC(=O)[C@H](CCCCN)NC(=O)[C@@H](N)CC(C)C)C(=O)N[C@@H](CCCCN)C(=O)NC2CCC=CCCC(NC(=O)[C@H](CCCCN)NC(=O)CNC(=O)[C@H]3CCCN3C(=O)[C@H](CCCCN)NC2=O)C(=O)N[C@@H](CCCCN)C(=O)N1)C(N)=O (stereo partly shown) — MIC (broth microdilution; ATCC 25922, Mueller-Hinton broth; 18 h, 37 °C): 64 µM
CC[C@H](C)[C@H](NC(=O)[C@@H](CCCNC(=N)N)NC(=O)[C@H](CCCNC(=N)N)NC(=O)[C@@H]1CCCN1C(=O)[C@@H]1CCCN1C(=O)[C@H](CCCNC(=N)N)NC(=O)[C@@H]1CCCN1C(=O)[C@H](CCCNC(=N)N)NC(=O)[C@@H]1CCCN1C(=O)[C@H](CC(C)C)NC(=O)[C@H](Cc1c[nH]cn1)NC(=O)[C@@H]1CCCN1C(=O)[C@@H]1CCCN1C(=O)[C@H](CCCCN)NC(=O)[C@H](CC(=O)O)NC(=O)[C@@H](N)C(C)C)C(=O)N[C@@H](Cc1ccc(O)cc1)C(=O)N[C@@H](CC(N)=O)C(=O)N[C@H](CCCNC(=N)N)C(N)=O — MIC (broth microdilution; ATCC 25922; 18 h, 37 °C, 25% MHB2): 4 mg/L
CC[C@H](C)[C@H](NC(=O)[C@H](Cc1c[nH]c2ccccc12)NC(=O)c1ccccc1)C(=O)N[C@@H](CCCNC(=N)N)C(=O)N[C@@H](Cc1ccc(O)cc1)C(=O)N[C@@H](CCCCN)C(=O)N[C@@H](Cc1c[nH]c2ccccc12)C(=O)N1CCC[C@@H]1C(=O)N[C@@H](CCCNC(=N)N)C(=O)N[C@@H](CCCCN)C(=O)N[C@@H](CCCCN)C(=O)N[C@H](C(=O)N[C@@H](CCCNC(=N)N)C(=O)N[C@@H](Cc1ccc(O)cc1)C(=O)N[C@@H](Cc1c[nH]c2ccccc12)C(=O)N[C@H](C(=O)NCC(=O)N1CCC[C@H]1C(N)=O)[C@@H](C)O)C(C)C — MIC (DH5α; 16 h, 37 °C): > 100 µM
CC[C@H](C)[C@H](NC(=O)[C@@H](CCCNC(=N)N)NC(=O)[C@H](CCCNC(=N)N)NC(=O)[C@H](Cc1c[nH]c2ccccc12)NC(=O)[C@H](Cc1c[nH]c2ccccc12)NC(=O)[C@H](CCCNC(=N)N)NC(=O)[C@@H]1CCCN1C(=O)[C@H](CCCNC(=N)N)NC(=O)[C@@H]1CCCN1C(=O)[C@H](CC(C)C)NC(=O)[C@H](Cc1ccc(O)cc1)NC(=O)[C@@H]1CCCN1C(=O)[C@@H]1CCCN1C(=O)[C@H](CCCCN)NC(=O)[C@H](CC(=O)O)NC(=O)[C@@H](N)C(C)C)C(=O)N[C@@H](Cc1ccc(O)cc1)C(=O)N[C@@H](CC(N)=O)C(=O)N[C@H](CCCNC(=N)N)C(N)=O — MIC (broth microdilution; ATCC 25922; 18 h, 37 °C, 25% MHB2): 8 mg/L
CC(C)C[C@@H](NC(=O)[C@H](NC(=O)[C@@H](CCCCN)NC(=O)[C@@H](CCCCN)NC(=O)[C@@H](CC(C)C)NC(=O)[C@@H](Cc1c[nH]c2ccccc12)NC(=O)[C@@H](CCCCN)NC(=O)[C@@H](Cc1c[nH]c2ccccc12)NC(=O)[C@@H](CC(C)C)NC(=O)[C@@H](CCCCN)NC(=O)[C@@H](CCCCN)NC(=O)[C@H](N)C(C)C)C(C)C)C(N)=O — MIC (24 h, 37 °C, Mueller-Hinton broth, NaCl 150 mM): 8 µM

Repeated from above:
C[C@H](CS)C(=O)Nc1cccc(-c2nn[nH]n2)c1 — MIC (DH5a pET28-lacUV5-VIM-2; 100 µM, no meropenem): > 64 mg/L
